Experimental data of several laboratories.
“And” joins repeats or separate records; there may be more than shown. ± gives the spread as reported.

Compound = CN(C)C(=O)c1ccnc(N2Cc3cn(Cc4ccc(F)cc4F)nc3C2)n1; system = mouse, hippocampal slice, Schaffer collaterals; conditions = dose not given, interstimulus interval 300; scale = relative to: second over first response; endpoint = paired-pulse ratio; result = 1.18 and 1.32 and 1.21 and 1.78 and 1.17 and 1.29 and 1.27
Compound = Nc1ncc(-c2cc(-c3cnn(CC(F)(F)F)c3)ncc2F)nc1C(=O)NC1CNCC(F)C1 (stereo not shown); target or system = CDKL3; assay = KINOMEscan; conditions = 1 µM; scale = relative to: DMSO control; endpoint = remaining binding; result = 91%
Compound = CC(C)c1ccc(N(C)c2ccc3c(c2)OCC[C@H]3CNc2cnccc2C(=O)O)cc1; target or system = Namalwa; assay = cell growth, CellTiter-Glo; conditions = 7 days; endpoint = IC50; result = 3.21 nM
Compound = CC(=O)[O-].O.O.[O-]c1ccc(Br)cc1C=NCCN1CCOCC1.[Zn+2]; assay = hydroxyl radical scavenging; conditions = 120 µM; endpoint = inhibition; result = 32.5%
Compound = c1ccc(-c2n[nH]cc2-c2ccnc3ccccc23)nc1; target or system = RIM15 (Candida albicans); assay = kinase binding, MIB/MS competition; system = Candida albicans lysate; conditions = 10 µM; scale = relative to: DMSO; endpoint = log2 fold change; result = -0.1
Compound = Cc1ncsc1-c1ccc(C(C)NC(=O)C2CC(O)CN2C(=O)C(NC(=O)CCCCCCCCCCN2CCCC(Nc3ncc(Cl)c(Nc4ccccc4S(=O)(=O)C(C)C)n3)C2)C(C)(C)C)cc1 (stereo not shown); target or system = 22Rv1; assay = RNA-seq, item: TSSK2 mRNA; conditions = concentration not given; scale = relative to: DMSO; endpoint = log2 fold change; result = -2.47
Compound = C=CC(=O)Nc1cccc(Cn2ncc3cnc(Nc4cnn(CCOC)c4)nc32)c1; target or system = YSK1 human; assay = binding, KINOMEscan; conditions = 100 nM; scale = lower = stronger binding; endpoint = percent of control; result = 100%
Compound = Cc1cc(C(C)(C)C)ccc1OCCOCCN(C)C; assay = locomotor activity in dark; system = zebrafish larvae, 7 dpf; conditions = 10 µM, minute 3, dark phase; endpoint = larval motion; result = 9.3 ± 1.1 pixels/frame
Compound = Cn1ncc2cc(-c3cncc(Cl)c3N3CCC4(CCNC4=O)CC3)ccc21; target or system = LS174T; assay = gene expression, microarray, item: NPTX1 mRNA; conditions = concentration not given, 24 h; scale = relative to: untreated cells; endpoint = log2 fold change; result = -2.27
Compound = COc1ccc(N2CCN(CC(O)COc3ccc4ccccc4c3)CC2)cc1 (stereo not shown); system = zebrafish larvae, 7 dpf; conditions = 10 µM, minute 2; endpoint = larval motion; result = 10.8 ± 1.4 pixels/frame
Compound = [2H]C([2H])([2H])C1(C([2H])([2H])[2H])NC(=O)N(c2ccc(F)c(C(C)(F)F)c2)C1=O; target or system = Schistosoma mansoni; system = mouse; conditions = oral, 25 mg/kg single dose, dosed one day before infection; endpoint = worm burden reduction; result = 59%
Compound = CN(C)CCOCCOc1ccc(Cl)c(Cl)c1; assay = locomotor activity in dark; system = zebrafish larvae, 7 dpf; conditions = 10 µM, minute 3, dark phase; endpoint = larval motion; result = 0.5 ± 0.3 pixels/frame
Compound = CN1CCCNC(=O)c2cccc(c2)C(=O)NCCCN(C)CCCNc2cccc3c2C(=O)c2cccc(c2C3=O)NCCC1; target or system = SAS; assay = RNA-Seq, item: EHMT2 mRNA; conditions = 1 µM, 6 h; scale = relative to: untreated cells; endpoint = log2 fold change; result = -0.759
Compound = CCN(C(=O)c1cc(F)ccc1Oc1nncnc1N1CCC2(C1)CN([C@H](CCCN(C)CCOC)C(C)C)C2)C(C)C; target or system = SK-OV-3; assay = cell growth or viability; conditions = 7 days; endpoint = GI50; result = > 10000 nM
Compound = CNS(=O)(=O)Nc1nccc(Cc2c(C)c3ccc(Oc4ncccc4F)cc3oc2=O)c1F; target or system = 647-V; assay = cell viability; conditions = 7 days; endpoint = IC50; result = 53.8 nM
Compound = COC1CN([C@H]2CC[C@H]([C@@]3(C)Oc4c(Cl)cc(C(=O)NCc5c(SC)cc(C)[nH]c5=O)c(C)c4O3)CC2)C1; assay = RNA-seq, item: LOXL1 mouse homolog; system = mouse, HT-1376 xenograft, whole blood; conditions = dose not given; scale = relative to: vehicle; endpoint = log2 fold change; result = 0.87
Compound = CC(C)(C)NCC(SS(=O)(=O)O)c1ccccc1 (stereo not shown); target or system = Schistosoma mansoni; system = infected mice; conditions = 400 mg/kg single, day 42, perfusion day 56; scale = relative to: vehicle; endpoint = male worm burden reduction; result = 74%
Compound = COCCNCCOc1cc(C)cc(C(C)C)c1; system = zebrafish larvae, 7 dpf; conditions = 10 µM, minute 4; endpoint = larval motion; result = 15.5 ± 1.3 pixels/frame
Compound = COc1cc(O)ccc1CCC(c1ccc(O)cc1)c1cc2c(c(C)c1O)OC(c1ccc(O)cc1)CC2 (mixture of isomers); system = human blood; conditions = 30 µM, with: A23187; endpoint = 14-HDHA level; result = 793 ± 223 pg/mL

Excerpt of the above:
Compound = CN(C)C(=O)c1ccnc(N2Cc3cn(Cc4ccc(F)cc4F)nc3C2)n1; system = mouse, hippocampal slice, Schaffer collaterals; conditions = dose not given, interstimulus interval 300; scale = relative to: second over first response; endpoint = paired-pulse ratio; result = 1.18 and 1.32 and 1.21 and 1.78 and 1.17 and 1.29 and 1.27
Compound = Nc1ncc(-c2cc(-c3cnn(CC(F)(F)F)c3)ncc2F)nc1C(=O)NC1CNCC(F)C1 (stereo not shown); target or system = CDKL3; assay = KINOMEscan; conditions = 1 µM; scale = relative to: DMSO control; endpoint = remaining binding; result = 91%
Compound = CC(C)c1ccc(N(C)c2ccc3c(c2)OCC[C@H]3CNc2cnccc2C(=O)O)cc1; target or system = Namalwa; assay = cell growth, CellTiter-Glo; conditions = 7 days; endpoint = IC50; result = 3.21 nM
